Measurements of several laboratories.
Lines come from different studies, so protocols differ. Values joined by “and” are separate records of one study, mostly repeats; a detail may differ. ± gives the spread as reported. ≈ marks a conversion by molar mass, not a printed value.
UniProt Q9NPD5, sequence (whole entry, looked up): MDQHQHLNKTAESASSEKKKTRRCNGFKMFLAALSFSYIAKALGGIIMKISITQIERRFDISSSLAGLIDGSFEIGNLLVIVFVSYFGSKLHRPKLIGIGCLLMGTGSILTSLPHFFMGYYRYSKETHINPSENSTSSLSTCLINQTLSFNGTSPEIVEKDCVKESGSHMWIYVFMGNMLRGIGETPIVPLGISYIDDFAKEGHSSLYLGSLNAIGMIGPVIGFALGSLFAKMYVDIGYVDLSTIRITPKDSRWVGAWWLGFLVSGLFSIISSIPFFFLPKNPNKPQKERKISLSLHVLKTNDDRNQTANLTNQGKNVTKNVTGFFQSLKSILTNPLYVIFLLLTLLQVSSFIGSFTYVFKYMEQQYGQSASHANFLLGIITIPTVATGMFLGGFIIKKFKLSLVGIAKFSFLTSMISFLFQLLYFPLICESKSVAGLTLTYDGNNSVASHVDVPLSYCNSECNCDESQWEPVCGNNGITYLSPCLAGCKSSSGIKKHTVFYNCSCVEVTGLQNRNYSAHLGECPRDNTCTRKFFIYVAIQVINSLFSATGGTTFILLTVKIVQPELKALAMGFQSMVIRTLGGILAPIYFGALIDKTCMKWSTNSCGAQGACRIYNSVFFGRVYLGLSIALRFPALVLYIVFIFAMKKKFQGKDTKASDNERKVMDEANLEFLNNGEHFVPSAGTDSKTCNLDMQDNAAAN

| Compound | tested on | assay | test system | conditions | scale | endpoint | value |
| --- | --- | --- | --- | --- | --- | --- | --- |
| Cc1ccc(OCCN(C)C)cc1C(=O)N[C@H](C)c1cc(-c2cnn(CC(=O)N(C)C)c2)nc2ccccc12 | African green monkey cells |  |  | 3.906 µM |  | viability | 96.2% |
| Oc1ccc2c3c1OC1C(O)C=CC4C(C2)N(CC2CCC2)CCC341 (stereo not drawn) |  |  | octanol/buffer | 1 h, pH 7.4 |  | logD | 1.32 |
| CC(=O)NCCCC[C@@H]1NC(=O)[C@H](Cc2c[nH]c3c(C)cccc23)NC(=O)[C@H]([C@@H](C)O)NC(=O)[C@H](CC(N)=O)NC(=O)[C@@H](NC(C)=O)C(C)(C)SSC(C)(C)[C@@H](C(=O)N[C@@H](Cc2ccc(OCCN)cc2)C(=O)N[C@@H](Cc2ccc3ccccc3c2)C(=O)NC2(C(=O)N[C@@H](CCC(=O)O)C(=O)N[C@@H](CC(N)=O)C(=O)N[C@@H](Cc3cccnc3)C(=O)N(C)CC(N)=O)CCOCC2)NC1=O | Solute carrier organic anion transporter family member 1B3 (SLCO1B3, Homo sapiens, UniProt Q9NPD5) | substrate | HEK293 expressing SLCO1B3 | 5 µM, 30 min |  | uptake rate | 0.0746 ± 0.0087 pmol/mg/min |
| Cc1ccc(NC2(C)CN(C)C2)cc1C(=O)N[C@H](C)c1cc(-c2cnn(C)c2)nc2ccccc12 | Vero E6 |  |  | 31.25 µM |  | viability | 97.8% and 89.6% and 91.1% |
| Cc1nc2cccc(OCC(C)(C)C(=O)NC(C)C)c2c(N)c1C(=O)[O-].[Na+] | Escherichia coli | Ames plate incorporation | WP2 uvrA | 0.13 mg/plate, with: with rat liver S9 |  | revertant colonies | 34 ± 1 colonies/plate |
| COc1ccc2c3c1O[C@H]1[C@H](O)C=C[C@H]4[C@@H](C2)N(C)CC[C@@]341 |  | pH-potentiometric titration |  |  | reference: O-methyl derivative | Δlog K, isomerization effect | 0.01 log units |
| Cc1ccc(OCCN(C)C)cc1C(=O)N[C@H](C)c1cc(-c2cnn(C3CNC3)c2)nc2ccccc12 | Vero E6 |  |  | 250 µM |  | viability | 97.3% and 99.6% |
| CC(C)N1CN(C2c3ccccc3CCc3ccccc32)n2cc(C(=O)O)c(=O)c(O)c2C1=O |  |  | dog cells |  |  | CC50 | 3.5 µM |
| Cc1ccc(N(C)C2(C)CN(C)C2)cc1C(=O)N[C@H](C)c1cc(-c2cnn(C)c2)nc2ccccc12 | Vero E6 |  |  | 7.812 µM |  | viability | 98.6% and 99.5% and 96.6% |
| CCCCCC1=C(NCC)C(=O)C(C/C=C(\C)CCC=C(C)C)=C(O)C1=O | human peripheral lymphocytes |  |  | 10 µg/mL, 3 h, with S9, harvest 27 h |  | cytostasis | 12% |
| O=C1NC2(CC2)COc2ncc(F)cc2[C@H]2COCCN2c2ccn3ncc1c3n2 |  |  | Sprague-Dawley rat, female, thymus | oral, 20 mg/kg/day, 4 weeks, end of treatment |  | organ-to-brain weight ratio | 27.4 ± 7.1% |
| COc1ccnc(C(=O)N[C@H]2COC(=O)[C@H](Cc3ccccc3)[C@@H](OC(=O)C(C)C)[C@H](C)OC2=O)c1O | Oncorhynchus mykiss |  |  | 96 h, acute risk assessment |  | LC50 | 7.3 ng/mL (≈ 0.0142 µM) |

Repeated from above:
| Compound | tested on | assay | test system | conditions | scale | endpoint | value |
| --- | --- | --- | --- | --- | --- | --- | --- |
| CC(=O)NCCCC[C@@H]1NC(=O)[C@H](Cc2c[nH]c3c(C)cccc23)NC(=O)[C@H]([C@@H](C)O)NC(=O)[C@H](CC(N)=O)NC(=O)[C@@H](NC(C)=O)C(C)(C)SSC(C)(C)[C@@H](C(=O)N[C@@H](Cc2ccc(OCCN)cc2)C(=O)N[C@@H](Cc2ccc3ccccc3c2)C(=O)NC2(C(=O)N[C@@H](CCC(=O)O)C(=O)N[C@@H](CC(N)=O)C(=O)N[C@@H](Cc3cccnc3)C(=O)N(C)CC(N)=O)CCOCC2)NC1=O | Solute carrier organic anion transporter family member 1B3 (SLCO1B3, Homo sapiens, UniProt Q9NPD5) | substrate | HEK293 expressing SLCO1B3 | 5 µM, 30 min |  | uptake rate | 0.0746 ± 0.0087 pmol/mg/min |
